Published values from different studies.
Lines come from different studies, so protocols differ. Several values in a cell are separate wells, animals, samples, runs or records. Numbers after ± are the reported error.
LRRK2 G2019S: Leucine-rich repeat serine/threonine-protein kinase 2 (LRRK2, Homo sapiens, UniProt Q5S007, G2019S)
Adcy2/ADCY5 C1/C2 domains: Adcy2/ADCY5, C1/C2 domains (Rattus norvegicus, UniProt P26769+P30803)
Mapk1: Mitogen-activated protein kinase 1 (Mapk1, Rattus norvegicus, UniProt P63086)
odorant-binding protein 24: odorant-binding protein 24 (Monochamus alternatus, UniProt A0A1I9HZN3)
HRH4: Histamine H4 receptor (HRH4, Homo sapiens, UniProt Q9H3N8)
SNCA fibrils: Alpha-synuclein, fibrils (SNCA, Homo sapiens, UniProt P37840)
SLC18A3: Vesicular acetylcholine transporter (SLC18A3, Homo sapiens, UniProt Q16572)

Substance | target or system | assay | test system | conditions | measurement | result
CC(=O)C1CCCN1Cc1ccccc1 (stereo not shown) | Alpha-glucosidase MAL12 (MAL12, Saccharomyces cerevisiae S288c, UniProt P53341) | enzyme activity, inhibitor, absorbance | – | – | Ki | 2440 µM
Nc1ncnc2c1ncn2[C@@H]1O[C@H](COP(=O)(O)OP(=O)(O)O)[C@@H](O)[C@H]1O | LRRK2 G2019S | kinase activity, inhibitor, radiometric | – | Ki,e, variable LRRKtide | Ki | 300 ± 30 µM
O=c1ccn([C@H]2C[C@H](O)[C@@H](CO)O2)c(=O)[nH]1 | P1-type nucleoside transporter | thymidine uptake, inhibitor | Trypanosoma brucei brucei, bloodstream form | 15 min, added: [3H]-thymidine | Ki | 320 ± 60 µM
c1cc2c(cc1C1CCCCC1)c1c3n2CCNC3CCC1 (stereo not shown) | Amine oxidase [flavin-containing] A (MAOA, Homo sapiens, UniProt P21397, S209A) | enzyme activity, competitive inhibitor | – | S209A mutant, added: kynuramine | Ki | 4.11 ± 0.67 µM
CC(C)(c1ccc(O)cc1)c1ccc(OCc2cccc(COc3ccc(C(=N)N)cc3)c2)cc1 | Leukotriene B4 receptor 1 (Cavia porcellus, UniProt H0VYV8, H83G/K88G/S309A) | displacement of LTB4 | membrane fraction | H83G/K88G mutant | Ki | 0.0058 µM
CNc1ccccc1C(=O)O[C@@H]1C[C@@H](COP(=O)(O)OP(=O)(O)OP(=O)(O)O)O[C@H]1n1cnc2c(N)ncnc21 | Adcy2/ADCY5 C1/C2 domains | adenylyl cyclase activity, inhibitor, purified enzyme | – | added: 10 mM MnCl2, 100 µM forskolin, no Gsα-GTPγS | Ki | 1.2 ± 0.1 µM
Nc1ncnc2c1ncn2[C@@H]1O[C@H](COP(=O)(O)OP(=O)(O)O)[C@@H](O)[C@H]1O | Mapk1 | ATP-competitive component | – | added: substrate Sub-D 20 µM, varied MgATP | Ki | 91 ± 25 µM
Cc1cccc(NC(=O)c2ccc(F)c(F)c2)n1 | mGluR5 | binding | HEK293T cell membranes, transfected | – | Ki | > 10 µM
(+)-α-pinene | odorant-binding protein 24 | competitive fluorescence binding | – | pH 7.4, added: 1-NPN | Ki | 12.8 ± 1.09 µM
N=C(NCCCCCCCCCCCCN)NCCCc1cnc(N)s1 | HRH4 | ligand displacement, radioligand | – | cell membranes | Ki | 22.4 µM
Cc1cn([C@H]2C[C@H](O)[C@@H](COP(=O)(O)O)O2)c(=O)[nH]c1=O | N-glycosylase/DNA lyase (OGG1, Homo sapiens, UniProt O15527) | 8-oxoguanine excision, competitive inhibitor | – | pH 7.5, 37 °C, substrate at 2 × Km, added: 22 nM oxoguanine duplex DNA | Ki | 2000 µM
NC[C@@H]1O[C@H](C23CC4CC(CC(C4)C2)C3)Cc2c1ccc(O)c2O | D(1A) dopamine receptor (Sus scrofa, UniProt P50130) | binding, radioligand competition binding | porcine striatal homogenate | added: 1 nM [3H]SCH-23390 | Ki | 0.0039 ± 0.0006 µM
O=c1[nH]cnc2c1ncn2[C@@H]1O[C@H](CO)[C@@H](O)[C@H]1O | Trichomonas vaginalis nucleoside transporter | inhibitor | trophozoites, Trichomonas vaginalis | high-affinity component, added: [3H]-guanosine | Ki | 6.3 ± 2.6 µM
O=c1ccn([C@@H]2O[C@H](CO)[C@@H](O)[C@H]2O)c(=O)[nH]1 | P1-type nucleoside transporter | thymidine uptake, inhibitor | Trypanosoma brucei brucei, bloodstream form | 15 min, added: [3H]-thymidine | Ki | 199 ± 38 µM
Nc1ncnc2c1ncn2[C@@H]1O[C@H](COP(=O)(O)OP(=O)(O)NP(=O)(O)O)[C@@H](O)[C@H]1O | LRRK2 G2019S | kinase activity, inhibitor, radiometric | – | Ki,e, variable ATP | Ki | 400 ± 200 µM
CC1(C)C=C(C(=O)OC(C)(C)C)C(=O)CC1 | Mitogen-activated protein kinase 8 (MAPK8, Homo sapiens, UniProt P45983) | ligand displacement, FP | – | – | Ki | 110 µM
Nc1ccc(C(=O)/C=C/c2ccccc2)cc1 | GABA-A receptor benzodiazepine site (rat) | binding | rat cerebral cortex membranes | added: [3H]flunitrazepam | Ki | < 6 µM and 6.1 µM and ~6 µM
N=C(NCCCN)NCCCc1c[nH]cn1 | HRH4 | ligand displacement, radioligand | – | cell membranes | Ki | 0.0933 µM
Cc1ccc(O)c(C(=O)/C=C/c2ccccc2)c1 | GABA-A receptor benzodiazepine site (rat) | binding | rat cerebral cortex membranes | added: [3H]flunitrazepam | Ki | 6.1 µM and ~6 µM and < 6 µM
N=c1ccc2c(-c3ccc(C(=O)NCCCCCCn4cc(CCCC(=O)Nc5nc6ccc(Cl)cc6c6nc(-c7ccco7)nn56)nn4)cc3C(=O)O)c3ccc(N)c(S(=O)(=O)O)c3oc-2c1S(=O)(=O)O | Adenosine receptor A2a (ADORA2A, Homo sapiens, UniProt P29274) | ligand displacement, radioligand | – | – | Ki | 0.073 µM
(+)-limonene oxide | odorant-binding protein 24 | competitive fluorescence binding | – | pH 5, added: 1-NPN | Ki | > 50 µM
NC(=O)NCCCc1c[nH]cn1 | HRH4 | ligand displacement, radioligand | – | cell membranes | Ki | 0.148 µM

Substance | target or system | assay | test system | conditions | measurement | result
CC(=O)N[C@@H](Cc1ccc(O)cc1)C(=O)N[C@@H](C)C(=O)N1CCC[C@H]1C(=O)N[C@@H](CCCNC(=N)N)C(=O)N[C@@H](C)C(=O)N1CCC[C@H]1C(=O)N[C@@H](C)C(=O)N[C@@H](CCCCN)C(=O)N[C@@H](CC(C)C)C(=O)N[C@@H](C)C(=O)N[C@@H](Cc1ccccc1)C(=O)N[C@@H](CCC(N)=O)C(=O)N[C@@H](Cc1ccccc1)C(=O)N1CCC[C@H]1C(=O)N[C@@H](CO)C(=O)N[C@@H](CCCNC(=N)N)C(N)=O | Mapk1 | competitive vs substrate | – | added: MgATP 1 mM, varied Sub-F | Ki | 26 ± 5 µM
N=C(N)NCCCCNC(=N)NCCCc1c[nH]cn1 | HRH4 | ligand displacement, radioligand | – | cell membranes | Ki | 0.0309 µM
(+)-β-pinene | odorant-binding protein 24 | competitive fluorescence binding | – | pH 7.4, added: 1-NPN | Ki | > 50 µM
CNc1ccccc1C(=O)O[C@H]1C[C@H](n2cnc3c(=O)[nH]c(N)nc32)O[C@@H]1COP(=O)(O)OP(=O)(O)OP(=O)(O)O | Adcy2/ADCY5 C1/C2 domains | adenylyl cyclase activity, inhibitor, purified enzyme | – | added: 10 mM MnCl2, 100 µM forskolin, no Gsα-GTPγS | Ki | 0.89 ± 0.18 µM
O=C(O[C@@H]1Cc2c(O)cc(O)cc2O[C@@H]1c1cc(O)c(O)c(O)c1)c1cc(O)c(O)c(O)c1 | Solute carrier family 22 member 6 (SLC22A6, Homo sapiens, UniProt Q4U2R8) | transporter uptake, inhibitor | – | – | Ki | 334 µM
COc1ccc(-c2cc(-c3nccs3)n[nH]2)cc1 | SNCA fibrils | fibril binding, thioflavin T competition | – | 1 µM fibrils, added: thioflavin T 3 µM | Ki | 0.163 µM
CC(=O)N[C@@H](Cc1ccccc1)C(=O)N[C@@H](CCC(N)=O)C(=O)N[C@@H](CCCNC(=N)N)C(=O)N[C@@H](CCCCN)C(=O)N[C@H](C(=O)N[C@@H](CC(C)C)C(=O)N[C@@H](CCC(N)=O)C(=O)N[C@@H](CCCNC(=N)N)C(=O)N[C@@H](CCCNC(=N)N)C(=O)N[C@@H](CC(N)=O)C(=O)N[C@@H](CC(C)C)C(=O)N[C@@H](CCCCN)C(=O)NCC(=O)N[C@@H](CC(C)C)C(=O)N[C@@H](CC(N)=O)C(=O)N[C@@H](CC(C)C)C(=O)N[C@@H](CC(N)=O)C(=O)N[C@@H](CC(C)C)C(N)=O)[C@@H](C)O | Mapk1 | noncompetitive component | – | added: substrate Sub-D 20 µM, varied MgATP | Ki | 108 ± 8 µM
O=C(c1ccc(SCCF)cc1)C1CCN(C2Cc3ccccc3CC2O)CC1 (racemic) | SLC18A3 | ligand displacement, radioligand | – | – | Ki | 0.0024 µM
COc1ccc(/C=C/c2cc(-c3nccs3)[nH]n2)cc1 | SNCA fibrils | fibril binding, thioflavin T competition | – | 1 µM fibrils, added: thioflavin T 3 µM | Ki | 0.059 ± 0.0113 µM
UGT1A9 (Homo sapiens, UniProt O60656) | CC(=O)c1ccc(O)cc1 | steady-state kinetics | – | pH 7.4, 37 °C | Vmax | 0.00444 µmol/min/mg
C=C(C)[C@H]1CC=C(C)CC1 | odorant-binding protein 24 | binding, competitive fluorescence binding | – | pH 5, added: 1-NPN | Ki | > 50 µM
Nc1nc(Cl)nc2c1ncn2[C@H]1C[C@H](O)[C@@H](COP(=O)(O)OP(=O)(O)OP(=O)(O)O)O1 | Ribonucleoside-diphosphate reductase large subunit (Homo sapiens, UniProt P23921) | CDP reductase activity, inhibitor | – | 3 min, apparent Ki, added: CDP substrate, ATP effector | Ki | 0.5 ± 0.1 µM
N=C(NCCCNC(N)=O)NCCCc1c[nH]cn1 | HRH4 | ligand displacement, radioligand | – | cell membranes | Ki | 0.145 µM
O=P(O)(O)OC[C@H]1N[C@H](COP(=O)(O)O)[C@@H](O)[C@@H]1O | Adenine phosphoribosyltransferase 1 (APT1, Saccharomyces cerevisiae, UniProt P49435) | enzyme activity, competitive inhibitor | – | pH 7.5, 25 °C, added: 2,6-diaminopurine 250 µM, PRPP 250 µM | Ki | 8.7 ± 1.5 µM
CN(C)c1ccc(/C=C/C(=O)c2nccs2)cc1 | SNCA fibrils | fibril binding, thioflavin T competition | – | 1 µM fibrils, added: thioflavin T 3 µM | Ki | 0.096 µM and 0.0955 µM
N=C(NCCCCCCNC(N)=O)NCCCc1c[nH]cn1 | HRH4 | ligand displacement, radioligand | – | cell membranes | Ki | 0.661 µM
(+)-fenchone | odorant-binding protein 24 | competitive fluorescence binding | – | pH 7.4, added: 1-NPN | Ki | 13.7 µM and < 20 µM
N=C(NCCCCNC(N)=O)NCCCc1c[nH]cn1 | HRH4 | ligand displacement, radioligand | – | cell membranes | Ki | 0.257 µM
CS(=O)(=O)c1ccc(C(=O)C2CCN(C3Cc4ccccc4CC3O)CC2)cc1 (racemic) | SLC18A3 | ligand displacement, radioligand | – | – | Ki | 0.0054 µM
CSC(=N)NCCCc1c[nH]cn1 | HRH4 | ligand displacement, radioligand | – | cell membranes | Ki | 0.00724 µM
CCc1cc(-c2n[nH]c(C)c2-c2ccc3c(c2)OCCO3)c(O)cc1O | Spliceosome RNA helicase DDX39B (DDX39B, Homo sapiens, UniProt Q13838) | ATPase activity, inhibitor, Kinase-Glo | – | added: ATP | Ki | 5.5 ± 0.2 µM

For quick reference, copied from above:
Substance | target or system | assay | test system | conditions | measurement | result
N=C(NCCCCCCCCCCCCN)NCCCc1cnc(N)s1 | HRH4 | ligand displacement, radioligand | – | cell membranes | Ki | 22.4 µM
Cc1cn([C@H]2C[C@H](O)[C@@H](COP(=O)(O)O)O2)c(=O)[nH]c1=O | N-glycosylase/DNA lyase (OGG1, Homo sapiens, UniProt O15527) | 8-oxoguanine excision, competitive inhibitor | – | pH 7.5, 37 °C, substrate at 2 × Km, added: 22 nM oxoguanine duplex DNA | Ki | 2000 µM
NC[C@@H]1O[C@H](C23CC4CC(CC(C4)C2)C3)Cc2c1ccc(O)c2O | D(1A) dopamine receptor (Sus scrofa, UniProt P50130) | binding, radioligand competition binding | porcine striatal homogenate | added: 1 nM [3H]SCH-23390 | Ki | 0.0039 ± 0.0006 µM
O=c1[nH]cnc2c1ncn2[C@@H]1O[C@H](CO)[C@@H](O)[C@H]1O | Trichomonas vaginalis nucleoside transporter | inhibitor | trophozoites, Trichomonas vaginalis | high-affinity component, added: [3H]-guanosine | Ki | 6.3 ± 2.6 µM
O=c1ccn([C@@H]2O[C@H](CO)[C@@H](O)[C@H]2O)c(=O)[nH]1 | P1-type nucleoside transporter | thymidine uptake, inhibitor | Trypanosoma brucei brucei, bloodstream form | 15 min, added: [3H]-thymidine | Ki | 199 ± 38 µM
Nc1ncnc2c1ncn2[C@@H]1O[C@H](COP(=O)(O)OP(=O)(O)NP(=O)(O)O)[C@@H](O)[C@H]1O | LRRK2 G2019S | kinase activity, inhibitor, radiometric | – | Ki,e, variable ATP | Ki | 400 ± 200 µM
CC1(C)C=C(C(=O)OC(C)(C)C)C(=O)CC1 | Mitogen-activated protein kinase 8 (MAPK8, Homo sapiens, UniProt P45983) | ligand displacement, FP | – | – | Ki | 110 µM
